Published values collected from several papers.
Each line is one published result; not all experiments were run side by side.
Effect on: metabolic stability

With C/C(=N\OCCCN1CCOCC1)c1ccc(C(F)(F)F)cc1 the half-life was 18.9 min (mouse, liver microsomes).
CC(C)c1cc(C(=O)NCCN(C)C)c2cnn(C(C)C)c2n1 has a half-life of 12 min (mouse, liver microsomes).
The half-life of O=C(Oc1cccc(CSc2ncccn2)c1)c1ccc([N+](=O)[O-])cc1 is reported as under 1 min (mouse, liver microsomes).
For CN1CCN(C(=O)c2ccc(-c3cc4nccc(-c5ccc6cnccc6c5)c4o3)cc2)CC1, the half-life was 4.6 min (mouse, liver microsomes).
With CC(C)n1ncc2c(C(=O)NCC(C)(C)N)cc(C3CC3)nc21 the half-life was over 145 min (mouse, liver microsomes).
C#CCCCC/C=C/C(=O)NC1(c2ccc(-c3nc4ccn5c(=O)[nH]nc5c4cc3-c3ccccc3)cc2)CCC1 has a half-life of 24.7 min (CD-1 mouse, liver microsomes; 1 µM, pH 7.4).
The half-life of Cc1c(Cc2cc(Cl)cc(OC(C)C(=O)O)c2)c2ccc(C(=O)NC(C)c3ccc(C(C)(C)C)cc3)cc2n1CC1CC1 (stereo not drawn) is reported as over 60 min (mouse, liver microsomes).
For C=C(NC(=O)c1csc(-c2nc3c(cc2O)-c2nc(cs2)C(=O)NC(C(C)O)C(=O)NC(=C(C)OC)c2nc(cs2)C(=O)NC2c4nc(cs4)C(=O)NC(COC(=O)c4c5c6c(cccc6n4O)COC(=O)C(OC4CC(C)(O)C(N(C)C)C(C)O4)C2OC5)c2nc-3cs2)n1)C(N)=O (stereo not drawn), the half-life was 357 min (mouse, liver microsomes; 2 µM).
With Cc1nn(C)c2nnc(-c3ccccc3)c(Cl)c12 the half-life was under 5 min (mouse, liver microsomes; 1 µM).
The half-life of Cc1c(Cc2cccc(OC(C)(C)C(=O)O)c2)c2ccc(C(=O)NCc3cccc(C(C)(C)C)c3)cc2n1CC1CCC1 is reported as 31 min (mouse, liver microsomes).
The half-life of OCCn1nc(-c2ccccc2)c2c(Cl)c(-c3ccccc3)nnc21 is reported as under 5 min (mouse, liver microsomes; 1 µM).
N#Cc1c(-c2ccco2)cc(-c2cccs2)[nH]c1=O has a half-life of 9.6 min (mouse, liver microsomes; 1 µM).
O=C(N[C@@H](CCCCNC(=O)c1ccc([N+](=O)[O-])o1)c1nc2ccccc2[nH]1)c1ccc(-c2ccccc2)cc1 gave a half-life of 6.6 min (mouse, liver microsomes; 1 µM).
CCn1c(C)c(Cc2cccc(OC(C)(C)C(=O)O)c2)c2ccc(C(=O)N[C@@H](C)c3cccc(C(C)(C)C)c3)cc21 gave a half-life of 68.5 min (mouse, liver microsomes).
For O=c1c(-c2cnn(-c3ccc(Cl)cc3)c2)c(C(F)(F)F)oc2c(O)c(O)ccc12, the half-life was 321 min (mouse, liver microsomes).
CC(C)n1ncc2c(C(=O)NC3(C)CNC3)cc(C3CC3)nc21 has a half-life of over 145 min (mouse, liver microsomes).
For CC(C)(C)[C@H](NC(=O)c1ccc(Oc2ccc(C(=O)N[C@H]3CCCC[C@@H]3O)cc2)cc1)C(=O)NCCN1CCCC1, the half-life was 113 min (mouse, liver microsomes; 1 µM, pH 7.4).
C/C(=N\OCCN1CCCC1)c1ccc(C(F)(F)F)cc1 gave a half-life of 10 min (mouse, liver microsomes).
For CC(C)n1ncc2c(C(=O)NCCN(C)C)cc(C3CC3)nc21, the half-life was 21.3 min (mouse, liver microsomes).
C=CC(=O)Nc1cccc(Cn2ncc3cnc(Nc4cnn(CCOC)c4)nc32)c1 has a half-life of 108 min (male CD-1 mouse, hepatocytes).
The half-life of Cc1c(Cc2ccc(F)c(OC(C)C(=O)O)c2)c2ccc(C(=O)NC(C)c3ccc(C(C)(C)C)cc3)cc2n1CC1CCC1 (stereo not drawn) is reported as over 60 min (mouse, liver microsomes).
Cc1ncsc1-c1ccc([C@@H]2CCCCCCNC(=O)C[C@@H]3N=C(c4ccc(cc4)OCCCCCC(=O)N[C@@H](C(C)(C)C)C(=O)N4C[C@H](O)C[C@H]4C(=O)N2)c2c(sc(C)c2C)-n2c(C)nnc23)cc1 gave a half-life of 11.2 min (mouse, liver microsomes; 1 µM).
Cc1c(Cc2ccc(Cl)c(O[C@@H](C)C(=O)O)c2)c2ccc(C(=O)N[C@@H](C)c3ccc(C(C)(C)C)cc3)cc2n1CC1CC1 has a half-life of over 60 min (mouse, liver microsomes).
For [2H]C([2H])(N)C([2H])([2H])NC(=O)c1cc(C2CC2)nc2c1cnn2C(C)C, the half-life was over 145 min (mouse, liver microsomes).
For Cc1c(Cc2cccc(OC(C)(C)C(=O)O)c2)c2ccc(C(=O)N[C@@H](C)c3ccc(C(C)(C)C)cc3)cc2n1CC1CCC1, the half-life was over 60 min (mouse, liver microsomes).
With Nc1nc(SCc2ccc(Cl)cc2)nn1S(=O)(=O)c1ccc2c(c1)CCO2 the half-life was 3 min (mouse, liver microsomes; 1 µM, pH 7.4).
Cc1c(Cc2cc(F)cc(OC(C)(C)C(=O)O)c2)c2ccc(C(=O)N[C@@H](C)c3ccc(C(C)(C)C)cc3)cc2n1CC1CCC1 has a half-life of over 60 min (mouse, liver microsomes).
C#CCCCC(O)/C=C/C(=O)NC1(c2ccc(-c3nc4ccn5c(=O)[nH]nc5c4cc3-c3ccccc3)cc2)CCC1 (stereo not drawn) has a half-life of 28.7 min (CD-1 mouse, liver microsomes; 1 µM, pH 7.4).
The half-life of Cc1c(Cc2ccc(Cl)c(O[C@@H](C)C(=O)O)c2)c2ccc(C(=O)N[C@@H](C)c3ccc(C(C)(C)C)cc3)cc2n1C is reported as 55 min (mouse, liver microsomes).
N=C(c1ccc([N+](=O)[O-])o1)N1CCC(NC(=O)c2cc(-c3ccc(F)cc3F)on2)(c2nc3ccccc3[nH]2)CC1 has a half-life of 6.3 min (mouse, liver microsomes; 1 µM).

A few entries again:
CCn1c(C)c(Cc2cccc(OC(C)(C)C(=O)O)c2)c2ccc(C(=O)N[C@@H](C)c3cccc(C(C)(C)C)c3)cc21 gave a half-life of 68.5 min (mouse, liver microsomes).
N=C(c1ccc([N+](=O)[O-])o1)N1CCC(NC(=O)c2cc(-c3ccc(F)cc3F)on2)(c2nc3ccccc3[nH]2)CC1 has a half-life of 6.3 min (mouse, liver microsomes; 1 µM).
Cc1ncsc1-c1ccc([C@@H]2CCCCCCNC(=O)C[C@@H]3N=C(c4ccc(cc4)OCCCCCC(=O)N[C@@H](C(C)(C)C)C(=O)N4C[C@H](O)C[C@H]4C(=O)N2)c2c(sc(C)c2C)-n2c(C)nnc23)cc1 gave a half-life of 11.2 min (mouse, liver microsomes; 1 µM).
